Measured values collected from several papers.
Each line is one published result; not all experiments were run side by side. Numbers after ± are the reported error.

| Structure (SMILES) | test | test system | setting | tissue uptake |
| --- | --- | --- | --- | --- |
| C[C@H](CN(C)Cc1ccccc1)NC(=O)c1ccc(-c2noc(C(F)(F)[18F])n2)cc1 | PET imaging | female Sprague-Dawley rats, hippocampus | intravenous, 60 min | 1.34 ± 0.23 SUV |
| CCCC[C@H](NC(=O)CNC(=O)CNC(=O)CN1CCN(CC(=O)O)CCN(CC(=O)O)CCN(CC(=O)O)CC1)C(=O)N[C@H]1CC(=O)NCCCC[C@@H](C(N)=O)NC(=O)[C@H](Cc2c[nH]c3ccccc23)NC(=O)[C@H](CCCNC(=N)N)NC(=O)[C@@H](Cc2ccccc2)NC(=O)[C@H](Cc2c[nH]cn2)NC1=O [copper-64 labelled] | – | female C57 mouse, B16/F1 melanoma, heart | intravenous, 0.037 MBq, 0.5 h | 2.22 ± 0.25 %ID/g |
| CC(C)[C@H](NC(=O)[C@@H]1CCCN1C(=O)[C@H](CCCNC(=N)N)NC(=O)[C@H](CS)NC(=O)[C@H](Cc1c[nH]c2ccccc12)NC(=O)[C@H](CCCNC(=N)N)NC(=O)[C@@H](Cc1ccccc1)NC(=O)[C@H](Cc1c[nH]cn1)NC(=O)[C@H](CCC(=O)O)NC(=O)[C@H](CS)NC(=O)[C@H](CS)NC(=O)[C@@H]1CC(=O)N[C@@H](CCCNC(=N)N)C(=O)NCC(=O)N[C@@H](CC(=O)O)C(=O)N[C@H](Cc2ccc(O)cc2)C(=O)N1)C(N)=O [technetium-99m labelled] | – | C57 mouse, female, B16/F1 melanoma, heart | intravenous, 0.037 MBq, 0.5 h | 3.09 ± 1.13 %ID/g |
| CCCC[C@H](NC(=O)CNC(=O)CNC(=O)CN1CCN(CC(=O)O)CCN(CC(=O)O)CC1)C(=O)N[C@H]1CC(=O)NCCCC[C@@H](C(N)=O)NC(=O)[C@H](Cc2c[nH]c3ccccc23)NC(=O)[C@H](CCCNC(=N)N)NC(=O)[C@@H](Cc2ccccc2)NC(=O)[C@H](Cc2c[nH]cn2)NC1=O [copper-64 labelled] | – | female C57 mouse, B16/F1 melanoma, muscle | intravenous, 0.037 MBq, 0.5 h | 0.31 ± 0.08 %ID/g |
| OCc1cn(Cc2ccc(-c3noc(-c4ccc(OCC[18F])c(C(F)(F)F)c4)n3)cc2)nn1 | – | female Lewis rat, thymus | intravenous, 60 min | 0.82 ± 0.04 %ID/g |
| O=C([O-])CN1CCN(CC(=O)[O-])CCN(CC(=O)NCCc2ccc3c(c2)C2C=CCC2C(c2cc4c(cc2Br)OCO4)N3)CCN(CC(=O)[O-])CC1.[111In+3] (centres unmarked) | – | mouse, Hec50 endometrial tumour, large intestine | 1 h post injection | 8.32 ± 1.03 %ID/g |
| O=C(O)C1CN(Cc2ccc(-c3noc(-c4ccc(OCC[18F])c(C(F)(F)F)c4)n3)cc2)C1 | – | male Sprague-Dawley rat, liver | intravenous, 60 min | 5.08 ± 0.324 %ID/g |
| CC(C)[C@H](NC(=O)[C@@H]1CCCN1C(=O)[C@H](CCCNC(=N)N)NC(=O)[C@H](CS)NC(=O)[C@H](Cc1c[nH]c2ccccc12)NC(=O)[C@H](CCCNC(=N)N)NC(=O)[C@@H](Cc1ccccc1)NC(=O)[C@H](Cc1c[nH]cn1)NC(=O)[C@H](CCC(=O)O)NC(=O)[C@H](CS)NC(=O)[C@H](CS)NC(=O)CNC(=O)[C@@H]1CC(=O)N[C@@H](CCCNC(=N)N)C(=O)NCC(=O)N[C@@H](CC(=O)O)C(=O)N[C@H](Cc2ccc(O)cc2)C(=O)N1)C(N)=O [technetium-99m labelled] | – | C57 mouse, female, B16/F1 melanoma, tumor | intravenous, 0.037 MBq, 24 h | 5.55 ± 0.89 %ID/g |

Repeated from above:
| Structure (SMILES) | test | test system | setting | tissue uptake |
| --- | --- | --- | --- | --- |
| CCCC[C@H](NC(=O)CNC(=O)CNC(=O)CN1CCN(CC(=O)O)CCN(CC(=O)O)CC1)C(=O)N[C@H]1CC(=O)NCCCC[C@@H](C(N)=O)NC(=O)[C@H](Cc2c[nH]c3ccccc23)NC(=O)[C@H](CCCNC(=N)N)NC(=O)[C@@H](Cc2ccccc2)NC(=O)[C@H](Cc2c[nH]cn2)NC1=O [copper-64 labelled] | – | female C57 mouse, B16/F1 melanoma, muscle | intravenous, 0.037 MBq, 0.5 h | 0.31 ± 0.08 %ID/g |
